Published values collected from several papers.
Lines come from different studies, so protocols differ. ± gives the spread as reported. ≈ marks a conversion by molar mass, not a printed value.

SMILES | target or system | test | test system | conditions | scale | endpoint | value
O=C(CCC1CCN(c2cc(NC3CC3)ncn2)CC1)NCc1cccnc1 | Cedar virus | viral replication | Vero C1008 | – | reference: CC50 over IC50 | selectivity index | > 42
CC(=O)NC(Cc1ccc(Br)c(Cl)c1)C(=O)N[C@@H](C)C(=O)N1CCC[C@H]1C(=O)N1CCC[C@H]1C(=O)N[C@@H](CCC(=O)O)C(=O)N[C@@H](Cc1c[nH]cn1)C(=O)N[C@@H](CO)C(=O)N[C@H](C(=O)N[C@@H](C)C(N)=O)[C@@H](C)OP(=O)(O)O (some centres unmarked) | Serine/threonine-protein kinase PLK2 (PLK2, Homo sapiens, UniProt Q9NYY3) | – | – | 10 µM | – | inhibition | 4.09 ± 0.23%
N=C(N)NCCC[C@@H]1NC(=O)[C@H](CCCCNC(=O)CNC(=O)CNC(=O)CNC(=O)CC[C@H](NC(=O)CCOCCOCCOCCOCCNC(=O)CC[C@H](NC(=O)CN2CCN(CC(=O)O)CCN(CC(=O)O)CCN(CC(=O)O)CC2)C(=O)NCCOCCOCCOCCOCCC(=O)N[C@@H](CCC(=O)NCC(=O)NCC(=O)NCC(=O)NCCCC[C@@H]2NC(=O)[C@@H](Cc3ccccc3)NC(=O)[C@H](CC(=O)O)NC(=O)CNC(=O)[C@H](CCCNC(=N)N)NC2=O)C(=O)NCC(=O)NCC(=O)NCC(=O)NCCCC[C@@H]2NC(=O)[C@@H](Cc3ccccc3)NC(=O)[C@H](CC(=O)O)NC(=O)CNC(=O)[C@H](CCCNC(=N)N)NC2=O)C(=O)NCC(=O)NCC(=O)NCC(=O)NCCCC[C@@H]2NC(=O)[C@@H](Cc3ccccc3)NC(=O)[C@H](CC(=O)O)NC(=O)CNC(=O)[C@H](CCCNC(=N)N)NC2=O)NC(=O)[C@@H](Cc2ccccc2)NC(=O)[C@H](CC(=O)O)NC(=O)CNC1=O [indium-111 labelled] | – | – | athymic nude mice, female, U-87 MG glioma xenograft, tumour and muscle | intravenous, 1 h | reference: tumour over muscle | tumour to tissue ratio | 10.4 ± 1.75
COC(=O)CC1C2CCCN3CCCC(CN1Cc1ccc(Cl)cc1)C23 (centres unmarked) | Vesicular stomatitis virus | viral entry | – | VSV G pseudotyped HIV | – | IC50 | > 200 µM
Cc1nc(=O)c2cc(CN(C)c3cccc(C(=O)Nc4n[nH]c5ccccc45)c3)ccc2[nH]1 | Mycobacterium tuberculosis | – | pptH knockout | – | – | MIC50 | 96.5 µM (≈ 42.3 µg/mL)
N=C(N)NCCC[C@@H]1NC(=O)[C@H](CCCCNC(=O)CCOCCOCCOCCOCCNC(=O)CN2CCN(CC(=O)O)CCN(CC(=O)O)CCN(CC(=O)O)CC2)NC(=O)[C@@H](Cc2ccccc2)NC(=O)[C@H](CC(=O)O)NC(=O)CNC1=O [indium-111 labelled] | – | – | athymic nude mice, female, U-87 MG glioma xenograft, tumour and lungs | intravenous, 24 h | reference: tumour over lungs | tumour to tissue ratio | 4.9 ± 1.02
CC[C@H](C)[C@@H]1NC(=O)[C@H](CC(C)C)NC(=O)[C@@H](NC(=O)[C@H](CO)NC(=O)[C@H](CCCNC(=N)N)NC(=O)[C@@H](N)CO)CSSC[C@@H](C(=O)N[C@@H](CCC(N)=O)C(=O)N[C@@H](CCCNC(=N)N)C(=O)N[C@@H](CC(C)C)C(=O)N[C@@H](Cc2ccccc2)C(N)=O)NC(=O)[C@H](C(C)C)NC(=O)[C@H]([C@@H](C)CC)NC(=O)[C@H](CC(C)C)NC(=O)[C@@H](NC(=O)[C@H](CO)NC(=O)[C@H](CCCNC(=N)N)NC(=O)[C@@H](N)CO)CSSC[C@@H](C(=O)N[C@@H](CCC(N)=O)C(=O)N[C@@H](CCCNC(=N)N)C(=O)N[C@@H](CC(C)C)C(=O)N[C@@H](Cc2ccccc2)C(N)=O)NC(=O)[C@H](C(C)C)NC1=O | Candidozyma auris | broth microdilution | DSM 21092 | – | – | MIC | 31 µg/mL
CN[C@](C)(C[18F])C(=O)O | SK-OV-3 tumour model | – | host not given, blood | 1 h, tumour-bearing | – | tracer uptake | 1.2 %ID/g
CON(C(=O)c1cn(C)nc1C(F)F)C(C)Cc1c(Cl)cc(Cl)cc1Cl (centres unmarked) | Phytophthora infestans | – | – | 1.56 µg/mL | – | inhibition | 88.1%
CCCC[C@H](NC(=O)CNC(=O)CNC(=O)c1ccc(NN)nc1)C(=O)N[C@H]1CC(=O)NCCCC[C@@H](C(N)=O)NC(=O)[C@H](Cc2c[nH]c3ccccc23)NC(=O)[C@H](CCCNC(=N)N)NC(=O)[C@@H](Cc2ccccc2)NC(=O)[C@H](Cc2c[nH]cn2)NC1=O [technetium-99m labelled] | – | – | C57 mouse, B16/F1 melanoma | 2 h, with: NDP-MSH blockade | reference: tumour over blood | uptake ratio | 1.88
O=C(NC12CC3CC(CC(C3)C1)C2)c1cc2cc(Cl)ccc2[nH]1 | Streptococcus pneumoniae | microbial growth, broth dilution | 1629 | – | – | MIC | > 64 µM
CCCCCCCCC(=O)NCc1ccc(O)c(OC)c1 | mouse mAb 1-D6 | antibody binding, indirect competitive ELISA | – | with: coating antigen 4-OVA | – | IC50 | 0.224 µg/mL
C=CC1CN(C(=O)NCC=CCSCC=CCNC(=O)N2CC(C=C)OC2=S)C(=S)O1 (centres unmarked) | unidentified influenza virus | viral replication | H3N2 | – | – | IC50 | 0.6 µM
CCN(Cc1ccccc1)C(=O)CCc1nc(CN2CCN(C(=O)Cc3ccc(OC)c(OC)c3)CC2)no1 | Potassium voltage-gated channel subfamily KQT member 5 (KCNQ5, Homo sapiens, UniProt Q9NR82) | potassium current, opener, whole-cell patch clamp | transfected cells | 10 µM | reference: control | current fold increase | 1.8 ± 0.14
CCCCCCCCCC(=O)OCC1OC(n2cc(C)c(=O)[nH]c2=O)CC1N(C)C (centres unmarked) | parainfluenza virus 3 | viral replication | Vero | – | – | EC50 | > 0.23 µM
OC12CC3CC(C1)CC(NCc1cnc(N4CCCCC4)nc1)(C3)C2 | influenza A virus | cytopathic effect | MDCK, A/WSN/33 H1N1 | 48 h | – | EC50 | 4.3 ± 0.3 µM
CC(C)N1CN(C2c3ccccc3CCc3ccccc32)n2cc(C(=O)O)c(=O)c(O)c2C1=O | lymphocytic choriomeningitis virus | immunofluorescence | – | concentration not given | – | nucleoprotein production | not detected
Cc1nc(=O)c2cc(CN(C)c3ccc(C(=O)Nc4n[nH]c5ccccc45)s3)ccc2[nH]1 | Mycobacterium tuberculosis | – | pptT knockdown without ATc | – | – | MIC50 | 39.4 µM (≈ 17.5 µg/mL)
O=C(Cc1cccs1)N[C@@H]1C(=O)N2C(C(=O)O)=C(CSc3cccc[n+]3[O-])CS[C@H]12 | Mycobacterium tuberculosis | – | H37Rv | replicating | – | MBC | 1.6 µM (≈ 0.742 µg/mL)
COc1ccc(NC(=O)CCc2nc(-c3ccc(N4CCCC4)cc3)no2)cc1OC | Cedar virus | viral replication | Vero C1008 | – | reference: CC50 over IC50 | selectivity index | > 286
CSC(=NNC(=O)c1ccc([N+](=O)[O-])cc1)SC | Mycobacterium | – | Fortuitum | – | – | MIC | 100 µg/mL
CCC1(O)C([N+](=O)[O-])=NNc2ncnn21 (centres unmarked) | unidentified influenza virus | viral replication | MDCK, H1N1 | 48 h | – | IC50 | > 469 µM
Cc1cc(Oc2nc(N3CC[C@@H](c4ccncc4)C3)ncc2F)[nH]n1 | Mycobacterium tuberculosis | time-lapse microscopy | Erdman tdTomato | 0.6 µM | – | time to growth arrest | 6 to 10 h
COC(=O)CC1C2CCCN3CCCC(CN1C(=O)c1ccc(Cl)cc1)C23 (centres unmarked) | Vesicular stomatitis virus | viral entry | – | VSV G pseudotyped HIV | – | IC50 | > 200 µM
COC(=O)[C@H](CCCNC(=O)OC(C)(C)C)NC(=O)c1ccc(NCc2ccc3nc(N)nc(N)c3c2Cl)cc1 | Mycobacterium tuberculosis | microbial growth | H37RV | – | – | MIC90 | < 0.1 µM
CC(=Nn1c(-c2ccccc2)nc2ccccc2c1=O)c1ccc(Cl)cc1 | human parainfluenza virus 3 | viral replication | Vero | – | – | EC50 | > 20 µg/mL

Repeated from above:
SMILES | target or system | test | test system | conditions | scale | endpoint | value
CCCC[C@H](NC(=O)CNC(=O)CNC(=O)c1ccc(NN)nc1)C(=O)N[C@H]1CC(=O)NCCCC[C@@H](C(N)=O)NC(=O)[C@H](Cc2c[nH]c3ccccc23)NC(=O)[C@H](CCCNC(=N)N)NC(=O)[C@@H](Cc2ccccc2)NC(=O)[C@H](Cc2c[nH]cn2)NC1=O [technetium-99m labelled] | – | – | C57 mouse, B16/F1 melanoma | 2 h, with: NDP-MSH blockade | reference: tumour over blood | uptake ratio | 1.88
O=C(NC12CC3CC(CC(C3)C1)C2)c1cc2cc(Cl)ccc2[nH]1 | Streptococcus pneumoniae | microbial growth, broth dilution | 1629 | – | – | MIC | > 64 µM
CCCCCCCCC(=O)NCc1ccc(O)c(OC)c1 | mouse mAb 1-D6 | antibody binding, indirect competitive ELISA | – | with: coating antigen 4-OVA | – | IC50 | 0.224 µg/mL
